Experimental data of several laboratories.
Target: Casein kinase I isoform alpha-like (CSNK1A1L, Homo sapiens, UniProt Q8N752)

| Structure (SMILES) | assay | conditions | scale | measurement | result |
| --- | --- | --- | --- | --- | --- |
| COc1c(Cl)cccc1Nc1c(-c2ccncc2C#C[C@@]2(C)CCCN2C(=O)/C=C/CN(C)C)[nH]c2c1C(=O)NCC2 | cell-free assay, competition with immobilised ligand | 3 µM |  | remaining binding | 100% |
| CNC1C[S+]2CC[S+]3CC[S+](C1)[Ru-4]321([N]=C=S)[n]2c3ccc(OC)cc3c3c4c(c5cc(F)c[n+]1c5c32)C(=O)NC4=O (centres unmarked) | KinomeScan | 0.1 µM | baseline: untreated | remaining binding | 89% |
| Cc1ccc(-c2c(/C=C(\C#N)C(=O)NC(C)C)n(CCCO)c3ncnc(N)c23)cc1 | cell-free assay, competition with immobilised ligand | 1 µM |  | remaining binding | 100% |
| CCN1CCN(Cc2ccc(C(=O)Nc3ccc(C)c(NCc4cnc5[nH]ccc5c4OC)c3)cc2C(F)(F)F)CC1 | binding, competition with immobilised ligand | 1 µM |  | remaining binding | 100% |
| C=CC(=O)N1Cc2nc(-c3cc(-c4cc(Cl)cnc4Cl)c(F)cc3F)n(-c3ccncn3)c2C1 | cell-free assay | 1 µM |  | inhibition | 5.8% |
| C=CC(=O)N1CCc2ccc(-n3c(=O)ccc4cnc5ccc(-c6cnn(C)c6)cc5c43)cc21 | KINOMEscan | 1 µM | baseline: DMSO control | remaining binding | 100% |
| CN1CCN(Cc2ccc(-c3ccc(CO[C@H]4CCC[C@@H]4NC(=O)c4cc(-c5cnn(C)c5)cnc4N)cc3)cc2)CC1 | enzyme activity, inhibitor | 0.1 µM |  | inhibition | 4% |
| Cc1cnc2nc1Nc1cccc(c1)COC/C=C/COCc1cc(ccc1OCCN1CCOCC1)N2 | binding | 0.1 µM |  | remaining binding | 98% |
| Nc1ncc2c(n1)-c1c([nH]c3ccc(C4=CCOCC4)cc13)CCC2 | binding, competition with immobilised ligand | 1 µM |  | remaining binding | 100% |
| CNC(=O)C1CCN(c2cc(C)c(F)cc2NC(=O)c2ccc(-c3cc(O)ccc3C)c(C)c2)CC1 | binding, competition with immobilised ligand | 1 µM |  | remaining binding | 7.2% |
| Nc1ncc(-c2cc(-c3cnn(CC(F)(F)F)c3)ncc2F)nc1C(=O)NC1CNCC(F)C1 (centres unmarked) | enzyme activity | 1 µM | baseline: DMSO control | remaining activity | 90.7% |
| C=CC(=O)N1CCCC(n2c(=O)c3ncccc3n(Cc3ccc(Oc4ccccc4)cc3)c2=O)C1 (centres unmarked) | cell-free assay, competition with immobilised ligand | 1 µM |  | remaining binding | 100% |
| CCn1cc(C(=O)O)c(=O)c2c(N)c(F)c(NC3CCCCC3)cc21 | kinase activity | 0.1 µM, with: ATP at Km |  | inhibition | 14.3% |
| COc1cc(Nc2nccc(-c3cnn4nc(OC)ccc34)n2)cc(C(F)(F)F)c1 | binding, competition with immobilised ligand | 1 µM |  | remaining binding | 87% |
| CC(C)=CC1OC(C)(C)C2C=C3C(=O)C(Cl)=CC(O)C3C3C(O)C4OC4C(=O)C132 (centres unmarked) | cell-free assay, competition with immobilised ligand | 10 µM |  | remaining binding | 93% |
| C[C@H]1CN(C(=O)c2cn(-c3ccnc(N)n3)c3cc(C#CC4(O)CCCCC4)ccc23)CCN1 | enzyme activity, inhibitor, FRET | 1 µM |  | inhibition | 44% |
| COc1cc(Nc2nc(C)cc(-c3cnn4nc(OC)ccc34)n2)cc(C(F)(F)F)c1 | inhibitor | 1 µM | baseline: control | remaining activity | 100% |

Excerpt of the above:
| Structure (SMILES) | assay | conditions | scale | measurement | result |
| --- | --- | --- | --- | --- | --- |
| CCn1cc(C(=O)O)c(=O)c2c(N)c(F)c(NC3CCCCC3)cc21 | kinase activity | 0.1 µM, with: ATP at Km |  | inhibition | 14.3% |
